# Assay results gathered from unrelated publications.
# ± marks the error that the study gave.
SMILES,organism,test,system,setting,IC50
O=Cc1ccccc1-c1cc2cccc([N+](=O)[O-])c2[nH]c1=O,Trypanosoma brucei,"parasite growth, resazurin",,"74 h, trypomastigote",7.5 µM
COc1ccc(-c2nc(N3CCOCC3)c3sc(CN(C)c4ncc(C(=O)NO)cn4)cc3n2)cn1,Lucilia cuprina,larval weight gain,"LS strain, larvae on impregnated cotton wool",24 h,12.2 µg
O=C1CSC(=S)N1/N=C/c1cn(Cc2ccc(F)cc2)c2ccc([N+](=O)[O-])cc12,Leishmania major,"parasite growth, resazurin",THP-1,"24 h, intracellular, amastigote",> 10 µM
CS(=O)(=O)c1ccc(-c2cnc(N)c(-c3ccc(C(F)(F)F)nc3)c2)cc1,Plasmodium cynomolgi,hypnozoite (small EEF) growth,primary rhesus hepatocytes,"day 4, compound added at 96 h",7 µM
C#CCn1cc(/C=C2\SC(=S)NC2=O)c2cc([N+](=O)[O-])ccc21,Trypanosoma congolense,,"trypomastigotes, IL3000",,> 78 µM
CCCCSC[C@H]1CN(Cc2c[nH]c3c(N)ncnc23)C[C@@H]1O,Campylobacter jejuni,colony formation,Mueller-Hinton agar,6 days,1.5 ± 0.8 µM
CCS(=O)(=O)Nc1ccc(NC(=O)c2cc(C(F)(F)F)cc(C(F)(F)F)c2)cc1F,Trypanosoma brucei brucei,cell growth,Lister 427,48 h,~8 µM
O=C(Nc1ccc2c(c1)OCO2)c1ccccc1Sc1ccc([N+](=O)[O-])cc1,Human immunodeficiency virus 1,viral replication,MT4,7 days,> 100 µM
O=c1[nH]c2c([N+](=O)[O-])cccc2cc1-c1ccc(CO)cc1,Trypanosoma brucei,"parasite growth, resazurin",,"74 h, trypomastigote",1.9 µM
COc1ccccc1C(=O)Nc1ccccc1OCc1ccc([N+](=O)[O-])cc1,Human immunodeficiency virus 1,viral replication,MT4,7 days,26.6 µM
C=C1C(=O)O[C@H]2[C@H]1CC/C(C)=C/CC[C@@]1(C)O[C@@H]21,Lucilia cuprina,larval weight gain,"LS strain, larvae on impregnated cotton wool",24 h,> 1000 µg
COc1ccccc1CC(=O)Nc1ccccc1Sc1ccc([N+](=O)[O-])cc1,Human immunodeficiency virus 1,viral replication,MT4,7 days,53.6 µM
O=C1NC(=S)S/C1=C\c1cn(Cc2cccc(Cl)c2)c2ccc([N+](=O)[O-])cc12,Leishmania major,"parasite growth, resazurin",THP-1,"72 h, intracellular, amastigote",2.73 µM
CN(C)Cc1ccc(S(=O)(=O)n2ccc(/C=C/C(=O)NO)c2)cc1,Lucilia cuprina,larval weight gain,"LS strain, larvae on impregnated cotton wool",24 h,556 µg
N=C(N)c1ccc(N=NNc2ccc(C(=N)N)cc2)cc1,Trypanosoma congolense,,"trypomastigotes, IL3000",,0.09 µM
Cc1[nH]c2ccccc2c1CCNCc1ccc(/C=C/C(=O)NO)cc1,Lucilia cuprina,larval weight gain,"LS strain, larvae on impregnated cotton wool",24 h,295 µg
O=C1CSC(=S)N1/N=C/c1cn(Cc2ccccc2)c2ccc([N+](=O)[O-])cc12,Trypanosoma congolense,,"trypomastigotes, IL3000",,> 60 µM
COc1ccccc1NC(=O)c1ccccc1Oc1ccc(N)cc1,Human immunodeficiency virus 1,viral replication,MT4,7 days,72.2 µM
O=C1NC(=S)S/C1=C\c1cn(Cc2ccc(F)cc2)c2ccc([N+](=O)[O-])cc12,Leishmania major,"parasite growth, resazurin",THP-1,"72 h, intracellular, amastigote",> 10 µM
CC(C)(C)CC(C)(C)Nc1c(-c2cccc(C#N)c2)nc2ncccn12,Leishmania amazonensis,fluorimetry,"peritoneal macrophages, RFP","72 h, intracellular amastigotes",< 10 µM

# Excerpt of the above:
SMILES,organism,test,system,setting,IC50
O=c1[nH]c2c([N+](=O)[O-])cccc2cc1-c1ccc(CO)cc1,Trypanosoma brucei,"parasite growth, resazurin",,"74 h, trypomastigote",1.9 µM
